Experimental data from different studies.
± marks the error that the study gave.
OPRL1: Nociceptin receptor (OPRL1, Homo sapiens, UniProt P41146)

The chains behind the UniProt entries cited, without tags or fusion partners. Residues count along the entry.
UniProt P41146, whole entry: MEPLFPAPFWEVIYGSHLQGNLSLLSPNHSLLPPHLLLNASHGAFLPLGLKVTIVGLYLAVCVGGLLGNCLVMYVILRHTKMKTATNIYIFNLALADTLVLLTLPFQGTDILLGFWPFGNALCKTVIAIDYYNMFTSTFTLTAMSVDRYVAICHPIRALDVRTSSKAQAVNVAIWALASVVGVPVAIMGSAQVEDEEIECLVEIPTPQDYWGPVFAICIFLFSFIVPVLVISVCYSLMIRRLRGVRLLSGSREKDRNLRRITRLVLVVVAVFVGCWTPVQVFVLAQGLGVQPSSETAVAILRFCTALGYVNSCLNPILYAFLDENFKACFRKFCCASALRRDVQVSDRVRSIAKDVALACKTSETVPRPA
UniProt P41145, whole entry: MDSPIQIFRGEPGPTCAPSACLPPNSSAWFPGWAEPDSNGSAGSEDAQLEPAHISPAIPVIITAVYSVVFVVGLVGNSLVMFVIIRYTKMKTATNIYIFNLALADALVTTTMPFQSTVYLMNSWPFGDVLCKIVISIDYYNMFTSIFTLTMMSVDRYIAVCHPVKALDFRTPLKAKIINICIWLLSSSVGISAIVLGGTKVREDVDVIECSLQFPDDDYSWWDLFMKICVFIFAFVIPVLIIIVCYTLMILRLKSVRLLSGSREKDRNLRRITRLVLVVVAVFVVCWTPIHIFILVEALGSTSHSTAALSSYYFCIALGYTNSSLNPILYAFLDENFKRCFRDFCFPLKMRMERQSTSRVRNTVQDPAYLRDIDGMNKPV
UniProt P41144, whole entry: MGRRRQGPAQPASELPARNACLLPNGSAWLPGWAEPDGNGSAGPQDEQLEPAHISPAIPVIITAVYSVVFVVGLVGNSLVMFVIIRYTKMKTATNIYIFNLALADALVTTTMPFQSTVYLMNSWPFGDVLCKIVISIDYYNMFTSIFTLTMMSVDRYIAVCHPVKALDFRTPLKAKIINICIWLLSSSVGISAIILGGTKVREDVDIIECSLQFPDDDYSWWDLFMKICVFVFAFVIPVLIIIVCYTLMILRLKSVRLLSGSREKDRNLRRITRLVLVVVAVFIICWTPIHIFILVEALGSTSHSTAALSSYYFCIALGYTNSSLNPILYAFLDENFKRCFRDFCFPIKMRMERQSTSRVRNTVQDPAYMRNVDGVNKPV
UniProt P21462, whole entry N192K: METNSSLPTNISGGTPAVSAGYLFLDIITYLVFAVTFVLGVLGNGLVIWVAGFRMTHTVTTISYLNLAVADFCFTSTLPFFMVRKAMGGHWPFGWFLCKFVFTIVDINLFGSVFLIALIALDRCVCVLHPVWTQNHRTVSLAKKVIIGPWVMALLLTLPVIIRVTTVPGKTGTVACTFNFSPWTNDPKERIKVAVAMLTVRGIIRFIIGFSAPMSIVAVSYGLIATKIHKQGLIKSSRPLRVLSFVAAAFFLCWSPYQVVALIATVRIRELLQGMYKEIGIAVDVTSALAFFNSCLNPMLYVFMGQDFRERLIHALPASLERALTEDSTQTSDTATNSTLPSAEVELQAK
UniProt P41143, whole entry: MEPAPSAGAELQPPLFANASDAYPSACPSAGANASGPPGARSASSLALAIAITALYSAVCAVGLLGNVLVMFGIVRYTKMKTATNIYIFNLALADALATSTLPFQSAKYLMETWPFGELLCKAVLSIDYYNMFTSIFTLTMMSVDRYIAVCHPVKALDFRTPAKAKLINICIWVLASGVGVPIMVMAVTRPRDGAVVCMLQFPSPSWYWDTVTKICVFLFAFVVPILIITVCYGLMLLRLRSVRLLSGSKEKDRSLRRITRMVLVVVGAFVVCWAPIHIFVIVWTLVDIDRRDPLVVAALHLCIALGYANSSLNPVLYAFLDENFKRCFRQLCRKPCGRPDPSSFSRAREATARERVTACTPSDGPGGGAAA
UniProt O95931, 11-69 limits assumed: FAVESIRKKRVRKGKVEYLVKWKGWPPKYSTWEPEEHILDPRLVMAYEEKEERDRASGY

CCC1C(=O)N(C2CCN(C/C=C/c3ccccc3)CC2)c2ccccc21 (stereo not drawn) — Ki (Kappa-type opioid receptor (OPRK1, Homo sapiens, UniProt P41145); radioligand displacement; added: tritiated U-69593): 1.37 ± 0.185 µM
NC12CC3CC(CC(C3)C1)C2 — EC50 (Influenza A virus; viral replication; MDCK, A/Swine/Iowa/13-0515/2010 (H3N2)): < 1 µM
CCC1C(=O)N(C2CCN(C3CCc4ccccc4C3)CC2)c2ccccc21 (stereo not drawn) — Ki (OPRL1; radioligand displacement; added: [3H]N/OFQ): 0.012 ± 0.00258 µM
Cc1cc(/C=C/C#N)cc(C)c1Oc1nc(NC2CCN(Cc3ccc(P(C)(C)=O)cc3)CC2)nc2ccsc12 — potency ratio (Human immunodeficiency virus 1; viral replication; MT-4, Y181C mutant; relative to: doravirine EC50 over compound EC50): ~4.98 fold
mercury(II) acetate — Ki (Botulinum neurotoxin type A, light chain (Clostridium botulinum, UniProt P0DPI0); SNAPtide cleavage, noncompetitive inhibitor): 0.109 µM
CCCSc1nc(N[C@@H]2C[C@H]2c2ccc(F)c(F)c2)c2nnn([C@@H]3C[C@H](OCCO)[C@@H](O)[C@H]3O)c2n1 — plasma concentration (STEMI patients, plasma; 180 mg loading dose, 12 h, added: fentanyl): 0.425 ± 0.424 µg/mL
CCC1C(=O)N(C2CCN(CCCCc3ccc(-c4ccccc4)cc3)CC2)c2ccccc21 (stereo not drawn) — Ki (OPRL1; radioligand displacement; added: [3H]N/OFQ): > 10 µM
N=C(N)NCC(=O)NCC1(Nc2ccccc2)CCN(Cc2ccccc2)CC1 — Ki (Kappa-type opioid receptor (OPRK1, Homo sapiens, UniProt P41145); binding; HEK293 membranes; added: [3H]U-69,593): 0.705 ± 0.08 µM
O=CN1CC[C@]23c4c5ccc(O)c4O[C@H]2[C@@H](O)C=C[C@H]3[C@H]1C5 — Ki (Kappa-type opioid receptor (OPRK1, Cavia porcellus, UniProt P41144); guinea pig brain membranes; added: tritiated U-69593): 0.363 ± 0.032 µM
CC[C@H](C)[C@H](N)C(=O)N[C@@H](CC(=O)O)C(=O)N[C@@H](CCCNC(=N)N)C(=O)N[C@@H](CC(C)C)C(=O)N[C@@H](CC(N)=O)C(=O)N[C@@H](CCC(=O)O)C(=O)N[C@H](C(=O)N[C@@H](C)C(=O)N[C@@H](CCCCN)C(=O)N[C@@H](CC(N)=O)C(=O)N[C@@H](CC(C)C)C(=O)N[C@@H](CC(N)=O)C(=O)N[C@@H](CCC(=O)O)C(=O)N[C@@H](CO)C(=O)N[C@@H](CC(C)C)C(=O)N[C@H](C(=O)N[C@@H](CC(=O)O)C(=O)N[C@@H](CC(C)C)C(=O)N[C@@H](CCC(N)=O)C(=O)N[C@@H](CCC(=O)O)C(=O)N[C@@H](CC(C)C)C(=O)NCC(=O)N[C@@H](CCCCN)C(=O)N[C@@H](Cc1ccc(O)cc1)C(=O)N[C@@H](CCC(=O)O)C(=O)N[C@@H](CCC(N)=O)C(=O)N[C@@H](Cc1ccc(O)cc1)C(=O)N[C@H](C(=O)N[C@@H](CCCCN)C(=O)N[C@@H](Cc1c[nH]c2ccccc12)C(=O)N1CCC[C@H]1C(=O)N[C@@H](Cc1c[nH]c2ccccc12)C(=O)N[C@@H](Cc1ccc(O)cc1)C(=O)N[C@H](C(=O)N[C@@H](Cc1c[nH]c2ccccc12)C(=O)N[C@@H](CC(C)C)C(=O)O)C(C)C)[C@@H](C)CC)[C@@H](C)CC)C(C)C — Ki (fMet-Leu-Phe receptor (FPR1, Homo sapiens, UniProt P21462, N192K); binding, competition binding; 4 °C, added: formyl-Nle-Leu-Phe-Nle-Tyr-Lys-FITC 0.3 nM): 3.14 ± 0.15 µM
N=C(N)NCCNC(=O)C1(Nc2ccccc2)CCN(Cc2ccccc2)CC1 — Ki (Delta-type opioid receptor (OPRD1, Homo sapiens, UniProt P41143); binding; added: [3H]DPDPE): 2.61 ± 0.65 µM
CO[C@]12CC[C@@]3(C[C@@H]1[C@](C)(O)c1cccs1)[C@H]1Cc4ccc(O)c5c4[C@@]3(CCN1CC1CC1)[C@H]2O5 — Ki (OPRL1; binding, radioligand displacement; HEK membranes; added: [3H]N/OFQ): 0.075 ± 0.0042 µM
COc1cccc(C(=O)N2CCN(C(=O)COc3cccc(C)c3)CC2)c1OC — Ki (Chromobox protein homolog 7 (Homo sapiens, UniProt O95931); H3K9me3 peptide binding, inhibitor, fluorescence anisotropy): 55.3 µM
N=C(N)NCCC[C@H](N)C(=O)NCC1(Nc2ccccc2)CCN(Cc2ccccc2)CC1 — Ki (Kappa-type opioid receptor (OPRK1, Homo sapiens, UniProt P41145); binding; HEK293 membranes; added: [3H]U-69,593): 1.23 ± 0.03 µM
Fc1ccc(CNc2ncnc3ccc(F)cc23)cc1 — EC50 (L/N (Lassa virus, UniProt O09705+P13699); viral replication, Gaussia luciferase reporter): 4.85 µM

A few entries again:
N=C(N)NCC(=O)NCC1(Nc2ccccc2)CCN(Cc2ccccc2)CC1 — Ki (Kappa-type opioid receptor (OPRK1, Homo sapiens, UniProt P41145); binding; HEK293 membranes; added: [3H]U-69,593): 0.705 ± 0.08 µM
CCC1C(=O)N(C2CCN(C3CCc4ccccc4C3)CC2)c2ccccc21 (stereo not drawn) — Ki (OPRL1; radioligand displacement; added: [3H]N/OFQ): 0.012 ± 0.00258 µM
